Published values pooled from the literature.
Numbered parts are unrelated; each lists some results of a single study. Substitutions count along the parent as printed.

Series 1 — technique: Sort-seq; refers to: YFP reporter; sample: E. coli; setting: PhoQ-PhoP variant library; added: 10 µM Mg2+; relative to: high Mg2+ state; direction: higher = stronger signaling
Substance: PhoQ, residues 284 288 289 292 302 303 ALSMDL
| target | fold induction |
| --- | --- |
| PhoP, residues 12 14 15 18 19 VHTVL (Escherichia coli, UniProt P23836) | 1.96 |
| PhoP, residues 12 14 15 18 19 ICWRQ (Escherichia coli, UniProt P23836) | 11.8 |
| PhoP, residues 12 14 15 18 19 TQCLL (Escherichia coli, UniProt P23836) | 5.06 |

Series 2 — target: CCND3, cyclin fold, Cln2 fusion (human); technique: yeast growth competition, sequencing; sample: yeast; setting: weak parent motif; relative to: not given; direction: higher = stronger binding
Starting sequence: CENPC docking peptide (human); VKTKKRLNFDDKV
| Variant | normalised enrichment score |
| --- | --- |
| K5R | 0.88 |
| T3A | 0.134 |
| V1A | 0.163 |
| K4A | 0.0428 |
| K12A | 0.162 |
| V13A | 0.0404 |
| F9A | 0.108 |
| R6A | 0.163 |
| K5R F9L | 0.179 |
| K5A L7A | 0.126 |

Series 3 — technique: universal PBM; molecule type: double-stranded DNA, one strand shown; sample: in vitro; concentration: 600 nM; direction: higher = stronger binding
Target: Sal-like protein 4, full length isoform A (SALL4, Homo sapiens, UniProt Q9UJQ4, residues 1-1053)
Sequence of UniProt Q9UJQ4 (whole entry, looked up): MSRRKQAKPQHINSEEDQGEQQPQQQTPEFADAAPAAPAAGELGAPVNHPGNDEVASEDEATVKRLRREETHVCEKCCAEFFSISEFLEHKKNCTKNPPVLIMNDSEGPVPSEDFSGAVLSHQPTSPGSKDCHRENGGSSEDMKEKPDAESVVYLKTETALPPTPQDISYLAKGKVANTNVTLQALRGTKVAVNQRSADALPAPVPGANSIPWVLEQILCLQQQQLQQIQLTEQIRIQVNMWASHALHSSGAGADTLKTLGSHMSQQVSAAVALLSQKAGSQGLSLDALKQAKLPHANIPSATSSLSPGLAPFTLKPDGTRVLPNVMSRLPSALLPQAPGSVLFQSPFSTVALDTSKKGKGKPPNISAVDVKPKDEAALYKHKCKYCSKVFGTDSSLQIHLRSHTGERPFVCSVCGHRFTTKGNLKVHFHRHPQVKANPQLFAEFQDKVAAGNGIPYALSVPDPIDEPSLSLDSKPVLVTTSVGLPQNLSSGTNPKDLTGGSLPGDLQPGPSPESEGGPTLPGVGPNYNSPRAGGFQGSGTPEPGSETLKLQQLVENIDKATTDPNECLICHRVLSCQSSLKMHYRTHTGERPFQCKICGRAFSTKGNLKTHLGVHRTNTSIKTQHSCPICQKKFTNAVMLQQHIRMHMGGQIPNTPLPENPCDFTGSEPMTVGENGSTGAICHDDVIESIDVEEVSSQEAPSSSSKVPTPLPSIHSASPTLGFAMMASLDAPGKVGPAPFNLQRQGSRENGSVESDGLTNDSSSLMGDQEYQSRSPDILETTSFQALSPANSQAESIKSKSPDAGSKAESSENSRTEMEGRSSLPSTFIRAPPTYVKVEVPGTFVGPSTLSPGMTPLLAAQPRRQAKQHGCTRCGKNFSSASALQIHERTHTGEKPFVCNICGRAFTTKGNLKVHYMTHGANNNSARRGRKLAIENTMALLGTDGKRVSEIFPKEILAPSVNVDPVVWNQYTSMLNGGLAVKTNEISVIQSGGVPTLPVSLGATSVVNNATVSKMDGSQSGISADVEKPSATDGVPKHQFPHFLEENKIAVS
Setting: 8-mer, flanks averaged, mean of replicates
| Sequence | E-score |
| --- | --- |
| CCTGAGAG | -0.218 |
| AACCACGT | -0.0456 |
| CAGCCCGA | -0.348 |
| GGAGAGGA | -0.219 |
| GGACATTA | 0.181 |
| AATAACCG | 0.214 |
| TAGCAATA | 0.334 |
| CGCTTCCC | -0.139 |
| CAGCCGGG | -0.378 |
| CTGTTCCC | -0.2 |
| GGTCTCAC | -0.0884 |
| ACTGAGTA | 0.0569 |
| GAGTCAGC | -0.221 |
| AGTACCTG | 0.0783 |
| GACGCTAA | -0.144 |
| ACTTCTAT | 0.172 |
| CGTTGCTC | -0.199 |
| GCTCTCAA | -0.137 |
| AAGTCTAC | -0.0858 |
| GAGGGCAC | -0.265 |
| GCCTCGCC | -0.392 |
| AGCTGGCG | -0.36 |
| AGACAGAC | -0.0331 |
| CCTCGCTA | -0.111 |
| CAGGTGGC | -0.206 |

Series 4 — technique: protein-binding microarray; molecule type: double-stranded DNA, one strand shown; sample: in vitro; concentration: 2540 nM top; setting: 60-bp whole probe; added: salmon DNA 0.4 mg/ml; relative to: random background probes; direction: higher = stronger binding; constant ends, left off below: GCCTAGCAC … GTCTTGATTCGCTTGACGCTGCTG
Target: Interferon regulatory factor 3, full length, phosphomimetic (IRF3, Homo sapiens, UniProt Q14653, residues 1-427, S386D/S396D/S398D/S402D/T404D/S405D)
Construct (chain): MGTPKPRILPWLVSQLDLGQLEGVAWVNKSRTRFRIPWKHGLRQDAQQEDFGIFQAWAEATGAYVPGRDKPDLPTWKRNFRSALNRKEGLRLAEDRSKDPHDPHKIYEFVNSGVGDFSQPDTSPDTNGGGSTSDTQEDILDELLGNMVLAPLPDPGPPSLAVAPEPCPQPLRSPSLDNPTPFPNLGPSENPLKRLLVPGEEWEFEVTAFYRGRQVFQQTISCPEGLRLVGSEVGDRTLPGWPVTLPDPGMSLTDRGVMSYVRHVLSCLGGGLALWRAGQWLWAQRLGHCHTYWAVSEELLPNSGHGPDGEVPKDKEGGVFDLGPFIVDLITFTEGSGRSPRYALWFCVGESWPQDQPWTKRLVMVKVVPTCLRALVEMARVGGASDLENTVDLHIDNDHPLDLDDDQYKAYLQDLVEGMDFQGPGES
| Sequence | fitted relative affinity |
| --- | --- |
| TTACGTTTCGGGACTGGGTTAGTGCTA | 3.19 z-score |
| GACGAACTGAGTGTCGAGACGTGCTAG | -0.207 z-score |
| TTAGATTTCAGTCTCGAATAGTGCTAG | 2.46 z-score |
| TTAGATCTCAGACTGGGTTAGTGCTAG | -0.234 z-score |
| CTAGATTTCAGACTGGATTAGTGCTAG | 0.565 z-score |
| GACGGGCTGGGGTATCGGGACGTGCTA | -0.869 z-score |
| TTAGATTCCAGTTTCGAATAGTGCTAG | 4.41 z-score |
| CTTGCTTTTTAGATCGTCCCGTGCTAG | 1.19 z-score |
| TTAGGTTTCACTTTCCAAAAGTGCTAG | 9.13 z-score |
| TTAGAACTGTGGTTTCGATTAGTGCTA | 2.26 z-score |
| CCTTGTCCCCTCAGGTATGGGTGCTAG | 1.14 z-score |
| GACGATATCAGACTAGAGACGTGCTAG | 0.63 z-score |
| GACGATTTCAGATTGGAGACGTGCTAG | 1.88 z-score |
| GACGGACCGGACTTTCGGGACGTGCTA | 0.381 z-score |
| GACGAACTGCGTCTCGAGACGTGCTAG | -0.307 z-score |
| TTAGGTTTCGGGTTTCGGCTAGTGCTA | 5.32 z-score |
| TATATTCTATTCCTTTAACAGTGCTAG | 1.72 z-score |

Series 5 — technique: RNA Bind-n-Seq; molecule type: RNA; sample: in vitro; concentration: 365 nM; relative to: no-protein control; direction: higher = stronger binding
Target: RNA binding protein fox-1 homolog 2, RRM domain, GST-SBP tag (RBFOX2, Homo sapiens, UniProt O43251-10, residues 100-194)
Setting: natural RNA segment, single round, ends assumed
Target sequence (chain): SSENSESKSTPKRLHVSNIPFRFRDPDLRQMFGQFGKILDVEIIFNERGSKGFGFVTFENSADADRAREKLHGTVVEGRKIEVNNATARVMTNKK
| Sequence | RBNS enrichment (R) |
| --- | --- |
| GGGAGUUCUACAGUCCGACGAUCGAACUCUUUCAAAACCUUUUGAAAUUAACCUCUCACUAUACCAGUAUAAUUGAGUUUUCAGUGGGGCAGUCAUUAUCCAGGUAAUCCAAGAUAUUUUAAAAUCUGUCACGUGGAAUUCUCGGGUGCCAA | 0.632 |
| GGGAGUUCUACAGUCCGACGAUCCCCUUUUUAUACUCCAUAUCUGUCUUCCAGAAACGUCACCUGCCUUUCUCCUGUGGUCUCUUAAUCCAGUAAUUGUAUUACUGCCAUUAAAGGAUGCAGUUAUUUUAAAAUGGAAUUCUCGGGUGCCAA | 0.673 |
| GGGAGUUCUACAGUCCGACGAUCAACAUAGAUUGUAUCACCCAUAUAUUCUUGAAUACACUUGUUUGGUUUGGUAUUACUUUGACUAUGUCCACAAUAGCAGCAAUCUUGGCUUUUUGUUAGCCAAAGUGUUCUGGAAUUCUCGGGUGCCAA | 0.382 |
| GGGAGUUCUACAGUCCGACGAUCCUUGAAAAUCAGAUUCUAACUGGAUUUGUAUGCAACUAAGUAUUUUUCUGAACACCUAUGCAGGUCUUAUUUACAGUAGUUACUAAGGGAACACACAAAGAAUUACACAAUGGAAUUCUCGGGUGCCAA | 0.561 |
| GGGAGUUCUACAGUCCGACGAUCGGUGCCCACUGGUGUCCCAUGGAAUCCACUCGGGUUGAAAUGUGGAUCUCUCCAUGGGACUCUUUAACCAGGCUAGAACAGCUGUCUGCCAAAGAUACAAGAAUAUGCAAUGGAAUUCUCGGGUGCCAA | 1.56 |
| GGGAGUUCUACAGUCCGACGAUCUGAGUUUUUGUUCUUAGAUAACCCACAUUAGAUGAAUGUGUUAAGUGAAAUGAUACUUGUACUCCCCCUACCCCUUUGUCAACUGCUGUGAAUGCUGUAUGGUGUGUGUUUGGAAUUCUCGGGUGCCAA | 3.16 |
| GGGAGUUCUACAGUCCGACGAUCAACUCUUUCUAUCCCGUGAAUAAAAGCAUCCCUUGGCUGGGAUAUAGGGCCACAUCAACCUGAGUUGGUACUGGGUGGCCAGGAUGGGGACUUUCCCAUUCUCAGCUGAGUGGAAUUCUCGGGUGCCAA | 0.642 |
| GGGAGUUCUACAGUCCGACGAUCAAAGAAGAGUUUGUGACUAUUCUCAUCUCUGUUUUGGACGUUUACUAGACUUUGAUUUCCUUAAUAGCCCAUUUCUGUUAACCUCUUAUCACUAAGAAAGAAAGGAAAGAUGGAAUUCUCGGGUGCCAA | 0.186 |
| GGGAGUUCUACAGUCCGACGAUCGCUGUGCCUUCUCAGCAGCACUUUUGCUGUACAUACAAUGGAAAUAAAGACCUCAGCUAGAAACCUGCAAUUGACUCAGCUUUGUUUUGGUUUUUUAUUUGUGCAUACCCUGGAAUUCUCGGGUGCCAA | 0.729 |
| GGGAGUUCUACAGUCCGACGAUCUCUAGCAUUUACAAAACUCAGAUCUCAAAGCUCUGCUUGUAUUUGUGAUAUUUCAUUUGCUUAACUGUAAACCAUUUCAAGGUACUAACUUUUAAAUCUGUAUGUAAAAUUGGAAUUCUCGGGUGCCAA | 0.607 |
| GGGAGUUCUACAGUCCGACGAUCUAACCCUGGAUCCAUCUCUAAGUAGAGAGAGGGUGCCCAUUGCCUAGGUGAGUGUGCCAAGCUCAGGAUUCCAACUGGUGCCUCUGAGCUUCCCAAUCAAUACUUCCUGGUGGAAUUCUCGGGUGCCAA | 0.263 |
| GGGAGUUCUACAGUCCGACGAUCGAAGCACAGGCCCGUCACCCCAGGAGGAAAAGCCCAGGGUCUGGGGCAGCAGAGCCAUCGCAUCAUGUUUCCCAGGGCAACUUGAGGUCUGACUUUUGGCUCCCUCGCCCUGGAAUUCUCGGGUGCCAA | 0.409 |

Series 6 — technique: DHFR PCA, deep sequencing; sample: yeast; added: (+)-ABA 200 µM; relative to: wild-type fitted maximum; direction: higher = stronger binding
Target: ABI1, truncated, D143A, DHFR fusion (Arabidopsis thaliana)
Setting: methotrexate growth selection, single substitutions
Starting sequence: PYL1, truncated, DHFR fusion (Arabidopsis thaliana); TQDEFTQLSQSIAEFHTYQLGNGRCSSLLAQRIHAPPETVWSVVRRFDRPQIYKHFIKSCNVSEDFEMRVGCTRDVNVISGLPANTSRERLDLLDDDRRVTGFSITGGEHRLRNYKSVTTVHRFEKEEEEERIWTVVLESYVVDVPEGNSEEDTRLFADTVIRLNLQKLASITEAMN
| Variant | relative binding score [%] |
| --- | --- |
| F47S | 4.36 |
| C25G | 52.7 |
| D153C | 57.6 |
| S59T | 99.1 |
| D159P | -7.93 |
| P146T | 60.8 |
| V121F | 7.47 |
| W134S | 110 |
| D97I | 88.8 |
| I162F | -5.37 |
| V43N | 41.3 |
| L82Y | 34 |
| V136Y | 92.6 |
| V40A | 51.5 |
| C25P | 26 |

Series 7 — technique: protein binding microarray; molecule type: double-stranded DNA, one strand shown; sample: in vitro; concentration: not given; relative to: not given; direction: higher = stronger binding
Target: Histone acetyltransferase KAT6A, both winged helices, GST fusion (KAT6A, Homo sapiens, UniProt Q92794, residues 1-181)
Setting: 8-mer, flanks averaged, mean of 2 arrays, mostly near background
Target sequence (chain): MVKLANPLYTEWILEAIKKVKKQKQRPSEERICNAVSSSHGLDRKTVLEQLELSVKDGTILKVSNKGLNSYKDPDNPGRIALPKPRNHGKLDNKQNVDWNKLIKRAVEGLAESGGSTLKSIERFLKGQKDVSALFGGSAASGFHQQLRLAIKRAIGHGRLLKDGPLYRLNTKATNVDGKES
| Sequence | E-score |
| --- | --- |
| GCCGAAGA | 0.133 |
| AGAATATA | -0.00901 |
| CATCTTCC | 0.00464 |
| GGCTAACA | 0.0141 |
| ACATGGTC | -0.0528 |
| ATCGTCGG | 0.0661 |
| GAAAAATA | -0.0668 |
| TAGGTAGA | -0.117 |
| ATGGCAAC | 0.0632 |
| CACGAGAG | -0.0837 |
| GGTTCCGA | 0.12 |
| CTTTAAAG | -0.184 |
| ACATAACG | 0.0911 |
| GAATGAGA | -0.0847 |
| GCTCTCCC | 0.0411 |
| AGTATTGC | -0.157 |
| ATGTAAAA | -0.0259 |
| CTGGCTCA | -0.118 |
| ACGTAAGA | -0.214 |
| AGTTCGGC | 0.0742 |
| AAGCTAAC | -0.117 |
| AAGCCTGG | -0.177 |

A few entries again (series 7):
| Sequence | E-score |
| --- | --- |
| AGAATATA | -0.00901 |
| CATCTTCC | 0.00464 |
| GGCTAACA | 0.0141 |
| ACATGGTC | -0.0528 |
| ATCGTCGG | 0.0661 |
| GAAAAATA | -0.0668 |
